# Experimental data collected from several papers.
# Parts stem from different laboratories: compare values within a part only. Substitutions count along the parent as printed.

# Block 1 — target: OGT, full length, His-tagged (human); technique: phage display, sequencing; sample: in vitro; tested at: 1 µg OGT; baseline: input library; reading: higher = stronger binding; parent: peptide; GDFPVMFMPKYSIIY
# Setting: single substitutions, 15-mer displayed peptide, unchanged parent 5.27
Change,fold enrichment [fold]
GDFPVMFMPKYSIWY [I14W],3.14
GDFPVMFIPKYSIIY [M8I],1.24
GDFPVMFMPKYSRIY [I13R],0.735
WDFPVMFMPKYSIIY [G1W],6.79
GDFPVMFMAKYSIIY [P9A],2.84
GDAPVMFMPKYSIIY [F3A],4.96
GDFPVMFMDKYSIIY [P9D],1.57
GDFPVMFMPKYFIIY [S12F],6
GDFPVMFMPKFSIIY [Y11F],3.8
GDFPVMFMPKYSIIE [Y15E],0.662
GDFPVMFMFKYSIIY [P9F],2.92
GDFPVMEMPKYSIIY [F7E],0.761
GDQPVMFMPKYSIIY [F3Q],4.28
GDFPVMFMPKYSLIY [I13L],1.28

# Block 2 — technique: protein binding microarray; molecule type: double-stranded DNA, one strand shown; sample: in vitro; tested at: not given; baseline: not given; reading: higher = stronger binding
# Target: Histone acetyltransferase KAT6A, winged helix 1, GST fusion (KAT6A, Homo sapiens, UniProt Q92794, residues 1-85)
# Setting: 8-mer, flanks averaged, mean of 2 arrays, mostly near background
# Construct (chain): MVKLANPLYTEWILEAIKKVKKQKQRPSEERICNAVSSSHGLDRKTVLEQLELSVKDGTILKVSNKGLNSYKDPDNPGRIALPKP
Strand,E-score
CCCAGCAC,0.0497
ATACCCAA,-0.24
ACACCGGC,0.34
GTCACAAA,-0.159
CTAGCGTC,0.157
GCTCCGCA,0.161
AGAGCGCG,0.338
GAGGCGCC,0.257
AGGAATTG,-0.187
AAAAGCAG,-0.163
ACTCAAGC,-0.133
ATCATAAT,-0.151
AGGTGTAC,0.0302
CCATCCAA,-0.148
AACTCGCG,0.246
CGCCCAAC,0.0228
TACGTCAA,-0.0317
GCATACGA,-0.0952
CGTTGGGA,-0.0576
TACACGCA,0.0539
AGTTTGTA,-0.0867
CTGCAGCC,-0.144

# Block 3 — technique: RNA Bind-n-Seq; molecule type: RNA; sample: in vitro; tested at: 365 nM; baseline: no-protein control; reading: higher = stronger binding
# Target: RNA binding protein fox-1 homolog 2, RRM domain, GST-SBP tag (RBFOX2, Homo sapiens, UniProt O43251-10, residues 100-194)
# Setting: natural RNA segment, single round, ends assumed
# Residues (chain): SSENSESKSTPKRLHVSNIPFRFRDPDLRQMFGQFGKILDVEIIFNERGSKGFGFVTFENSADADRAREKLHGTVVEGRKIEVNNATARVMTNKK
Strand,RBNS enrichment (R)
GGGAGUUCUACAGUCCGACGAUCUUACUUCUGAAAUGAAGGGAAAAAAACCACCCCAUCGUUCCCUACUCCUCCCCACCACUUACCCGUUCCCCCUUUACCUAAUCUAGUAGAUUAGCCAUCUUUCAAAUUCAUGGAAUUCUCGGGUGCCAA,0.785
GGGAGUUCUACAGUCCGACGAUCCUUCAGCAACAGCAAAGUGCUACGUAAAUGUAAAGUGUUGUUUUUAGCUAAUAAUGGAUUUAAGUGUUUGGAUAAUUGUAGAUGCAUUUACUUUGAUAAAGCGUGUGCUUUGGAAUUCUCGGGUGCCAA,2.05
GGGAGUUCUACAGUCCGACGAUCAGUUAUAUGGGCCUGUAACACAAACCUGAGUUUUAACCUAGUUCUAAUUUUAUAAGGCAUCUUAUUUUAUCUUUCAGAGAGCUCUACUUCUGGCUCAGGGAAUCUGAUAGUGGAAUUCUCGGGUGCCAA,0.48
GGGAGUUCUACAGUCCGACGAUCCCCUGGGGUGAGGUGCUCAGCACCUUCCUCUCGAGGAGCCACAUUUUCCUCCUUUGUGUUAGGGGACAUAACAAGCUCUGCUGGGCUUGAGGGACCCAGACCAGGUGUCUUGGAAUUCUCGGGUGCCAA,0.175
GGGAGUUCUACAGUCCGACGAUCGAGUGUUCUAGUCUGAUGUAUGUGGGGUUUCCUGCCCUGUUGGACCAAAGUUUCCAUGGUCCUAUGGGAUAGCCUUCAGCCUCUGGAGACCCAGAGCUUGCCUGCCAGGGUGGAAUUCUCGGGUGCCAA,0.584
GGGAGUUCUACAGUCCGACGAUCUAGUAGAUGCUGUCCUAUAUACCUAUUAAAAAUGCCAAACACUGAUAACAUUGAACAUGUUCAUAUUGAUAGAGAUAAUAUUGUAUAGGUCUAGUGUGUAUGGAUCUGGGUGGAAUUCUCGGGUGCCAA,0.329
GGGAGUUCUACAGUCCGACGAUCACUGUACUAGUUACUAUGAACAUGAAAAAAUAAUUAUCUUAGACUAUUUUAGAAGUAGGGUGUGAACAUAUAUUUUUAGAGGAAAAGCUGAUAGUCAUAGGGAAUAUAUGUGGAAUUCUCGGGUGCCAA,0.477
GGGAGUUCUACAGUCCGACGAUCUAGACAUCUAAUAAAUUUUGCUUGGAAGUAUACUUCAGUUUUUCUUCUUGACAUUUAUCUUUAUAAAAAUUGUGUAUUUUAUUCCAACUUGUUAAACUAAGAGAAAAUGCUGGAAUUCUCGGGUGCCAA,1.19
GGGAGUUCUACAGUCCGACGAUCGCCGACCAGAGGAAGUCUCUCUGCAUGUUCUAGUGUUAGUAACUAAUUUUUAUAUAGCUAAUGUAGGAUAAAGUAGAGUGCAUUAAGACAAUAUUGUAACCCCACUCUAGUGGAAUUCUCGGGUGCCAA,0.669
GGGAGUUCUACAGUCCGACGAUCUUGUCUUUAUGCUAUGUACAGAGAAAUGUGAUAAUUUUUUAUAAUAAAUAUUUUUUAUGAUGAUAAAGACAUUGUGUUUUAAAGUUCUUUUCUCAAUUUACCUCAAGGUAUGGAAUUCUCGGGUGCCAA,1.11
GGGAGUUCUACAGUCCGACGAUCAGAACUGUGGCUUGUAACUCAAUGAUGCUAUAACUCCAGCACUGGAUCUUAAGUAUUCUGGAAUAUACCAGAUUGGUAGAACUACCAGACUUGGGUAUUUCUCAGUUAACUGGAAUUCUCGGGUGCCAA,0.891
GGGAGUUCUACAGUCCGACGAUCGGUUUGCUCAUACAGCAUUUGGAUACUAAGCCAUUAUUUGCCGCUGUUGGUACUUAUACAAAGAAAAAUCAGCCCUGCCCUUUAGGACCUGAAAAUGCAACAGAAAGGGAUGGAAUUCUCGGGUGCCAA,0.365

# Block 4 — target: CCND3, cyclin fold, Cln2 fusion (human); technique: yeast growth competition, sequencing; sample: yeast; setting: weak parent motif; baseline: not given; reading: higher = stronger binding
# Parent: ASZ1 docking peptide (human); GFGFLLFICKLTF; partner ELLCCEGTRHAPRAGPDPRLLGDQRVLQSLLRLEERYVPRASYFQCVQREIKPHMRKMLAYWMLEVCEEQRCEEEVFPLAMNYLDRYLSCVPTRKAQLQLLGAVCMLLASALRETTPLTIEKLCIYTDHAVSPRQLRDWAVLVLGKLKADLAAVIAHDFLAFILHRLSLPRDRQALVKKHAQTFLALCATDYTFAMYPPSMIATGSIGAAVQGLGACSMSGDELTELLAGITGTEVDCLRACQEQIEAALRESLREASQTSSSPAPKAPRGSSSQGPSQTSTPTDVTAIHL
Change,normalised enrichment score
GFAFLLFICKLTF [G3A],0.254
GFGFLLFIAKLTF [C9A],0.435
GFGFLLFICKLAF [T12A],-0.122
GFGFALFICKLTF [L5A],0.366
GFGALLFICKLTF [F4A],0.0961
GFGFLLFICKATF [L11A],0.216
GFGFLLFICKLTA [F13A],0.405

# Block 5 — technique: RNA Bind-n-Seq; molecule type: RNA; sample: in vitro; tested at: 20 nM; setting: 6-mer, flanks averaged, single round; together with: 150 mM LiCl; baseline: input library; reading: higher = stronger binding
# Target: TAR DNA-binding protein 43, full length, His tag (TARDBP, Homo sapiens, UniProt Q13148, residues 1-414)
Strand,6-mer enrichment (R)
CGCUUG,0.922
UUCAUG,0.944
ACACUG,0.861
GUGUCC,1.09
AUAUGU,1.09
ACGCUU,0.86
CCUUCG,0.879
UGACUA,0.862
UCCUCG,0.854
CCGAAU,0.879
CAUGCA,0.903
AGAGCG,1
ACGUGG,1.02
UUCACU,0.884
ACUCUC,0.888

# Block 6 — technique: DHFR PCA, deep sequencing; sample: yeast; together with: (+)-ABA 2500 µM; baseline: wild-type fitted maximum; reading: higher = stronger binding
# Target: ABI1, truncated, D143A, DHFR fusion (Arabidopsis thaliana)
# Setting: methotrexate growth selection, single substitutions
# Parent: PYL1, truncated, DHFR fusion (Arabidopsis thaliana); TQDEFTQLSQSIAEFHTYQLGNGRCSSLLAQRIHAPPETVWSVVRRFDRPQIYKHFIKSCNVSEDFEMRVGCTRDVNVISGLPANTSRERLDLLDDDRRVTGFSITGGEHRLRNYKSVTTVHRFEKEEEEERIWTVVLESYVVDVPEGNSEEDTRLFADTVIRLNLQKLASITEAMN
Change,relative binding score
S26R,93%
A35Y,53%
R123H,101%
F15I,85%
E109W,87.5%
K168L,85.4%
C72S,94.2%
S171L,92.7%
E130G,103%
S11H,85.2%
D97K,106%
E38D,98.4%
F103R,23.1%
F66T,92%
Q19W,91.2%
E14A,82.3%

# Further values, each from its own experiment
Substance,target,test,system,setting,how to read,endpoint,value
"PhoQ, residues 284 288 289 292 302 303 SIHLQL","PhoP, residues 12 14 15 18 19 GQALL (Escherichia coli, UniProt P23836)","Sort-seq, item: YFP reporter",E. coli,"PhoQ-PhoP variant library, together with: 10 µM Mg2+","baseline: high Mg2+ state, higher = stronger signaling",fold induction,27.7

# For quick reference, copied from above (block 6):
Change,relative binding score
E109W,87.5%
K168L,85.4%
C72S,94.2%
S171L,92.7%
E130G,103%
S11H,85.2%
D97K,106%
E38D,98.4%
F103R,23.1%
